Values quoted from earlier work, collected from citations in different studies.
Lines come from different studies, so protocols differ.

The fraction unbound of `CCN(C)C(=O)Oc1cccc([C@H](C)N(C)C)c1` is reported as 0.316 (cynomolgus monkey).
Under “lowest effective concentration”, `CCN(N=O)C(N)=O` is recorded as 640 µM (HepG2; DNA damage, comet).
The bioconcentration factor of `C[Si]1(C)O[Si](C)(C)O[Si](C)(C)O[Si](C)(C)O[Si](C)(C)O1` is reported as 1040 L/kg wet weight (Poecilia reticulata; concentration not given, reanalysed data).
`CN1COCN(Cc2cnc(Cl)s2)/C1=N\[N+](=O)[O-]` — result for “measured soil concentration”: 0.94 mg/kg dry soil (test soil; 1.12 mg/kg nominal, 0 days).
`VDFLEENI` gave an IC50 of 19.2 nM (Mamu-B*01 macaque; peptide-MHC binding; peptide).
For `C[n+]1cc2c3c(ccc2c2ccc4cc5c(cc4c21)OCO5)OCO3`, the LD50 was 18 mg/kg (mouse; intraperitoneal).
With `CCOC(=O)C1=C[C@@H](OC(CC)CC)[C@H](NC(C)=O)[C@@H](N)C1` the oral bioavailability was 35% (rats; 10 mg/kg, single dose).
`Cc1c2ccccc2c(C)c2c1ccc1ccccc12` — result for “lowest effective concentration”: 25 µM (HepaRG; DNA damage, comet).
For `CCCc1nc2c(C)cc(-c3nc4ccccc4n3C)cc2n1Cc1ccc(-c2ccccc2C(=O)O)cc1`, the fraction unbound was 0.013 (cynomolgus monkey).

Excerpt of the above:
`VDFLEENI` gave an IC50 of 19.2 nM (Mamu-B*01 macaque; peptide-MHC binding; peptide).
